Results collected from several papers.
Protocols differ between the studies behind these lines. ± marks the error that the study gave.

Structure (SMILES) = N=C(N)NCCC[C@@H]1NC(=O)[C@H](CCCCNC(=O)CCOCCOCCOCCOCCNC(=O)CN2CCN(CC(=O)O)CCN(CC(=O)O)CCN(CC(=O)O)CC2)NC(=O)[C@@H](Cc2ccccc2)NC(=O)[C@H](CC(=O)O)NC(=O)CNC1=O [indium-111 labelled]; test system = female athymic nude mice, heart; conditions = intravenous, 3 µCi, 4 h, U-87 MG glioma xenograft; endpoint = tissue uptake; value = 0.27 ± 0.03 %ID/g
Structure (SMILES) = CCCC[C@H](NC(=O)CNC(=O)CNC(=O)c1ccc(NN)nc1)C(=O)N[C@H]1CC(=O)NCCCC[C@@H](C(N)=O)NC(=O)[C@H](Cc2c[nH]c3ccccc23)NC(=O)[C@H](CCCNC(=N)N)NC(=O)[C@@H](Cc2ccccc2)NC(=O)[C@H](Cc2c[nH]cn2)NC1=O [technetium-99m labelled]; test system = C57 mouse, B16/F1 melanoma-bearing; conditions = intravenous, 24 h; scale = baseline: tumour over skin; endpoint = tissue uptake ratio; value = 34.9
Structure (SMILES) = CCCC[C@H](NC(=O)[C@H](Cc1cccs1)NC(=O)[C@H](Cc1c[nH]cn1)NC(=O)CCNC(=O)[C@@H](NC(=O)[C@H](C)NC(=O)[C@H](Cc1c[nH]c2ccccc12)NC(=O)[C@H](CCC(N)=O)NC(=O)[C@H](Cc1cccs1)NC(=O)CN1CCC(NC(=O)CN(CCN(CCN(CC(=O)O)CC(=O)O)CC(=O)O)CC(=O)O)CC1)C(C)C)C(N)=O [indium-111 labelled]; test system = Swiss nu/nu mouse, male, PC-3 tumour xenograft, tumour; conditions = intravenous, 10 pmol, 24 h; endpoint = tissue uptake; value = 0.4 ± 0.1 %ID/g
Structure (SMILES) = CSCC[C@H](NC(=O)[C@H](CC(C)C)NC(=O)[C@H](Cc1c[nH]cn1)NC(=O)CNC(=O)[C@@H](NC(=O)[C@H](C)NC(=O)[C@H](Cc1c[nH]c2ccccc12)NC(=O)[C@H](CCC(N)=O)NC(=O)CCCCCNC(=O)CN1CCN(CC(=O)O)CCN(CC(=O)O)CC1)C(C)C)C(N)=O [gallium-68 labelled]; assay = microPET imaging; test system = nude mouse PC-3 xenograft, PC-3 tumour; conditions = intravenous, 3.7 MBq, 30 min; endpoint = mean tumour uptake; value = 3.28 ± 0.47 %ID/g
Structure (SMILES) = N=C(N)NCCC[C@@H]1NC(=O)[C@H](CCCCNC(=O)CC[C@H](NC(=O)CCOCCOCCOCCOCCNC(=O)CC[C@H](NC(=O)CN2CCN(CC(=O)O)CCN(CC(=O)O)CCN(CC(=O)O)CC2)C(=O)NCCOCCOCCOCCOCCC(=O)N[C@@H](CCC(=O)NCCCC[C@@H]2NC(=O)[C@@H](Cc3ccccc3)NC(=O)[C@H](CC(=O)O)NC(=O)CNC(=O)[C@H](CCCNC(=N)N)NC2=O)C(=O)NCCCC[C@@H]2NC(=O)[C@@H](Cc3ccccc3)NC(=O)[C@H](CC(=O)O)NC(=O)CNC(=O)[C@H](CCCNC(=N)N)NC2=O)C(=O)NCCCC[C@@H]2NC(=O)[C@@H](Cc3ccccc3)NC(=O)[C@H](CC(=O)O)NC(=O)CNC(=O)[C@H](CCCNC(=N)N)NC2=O)NC(=O)[C@@H](Cc2ccccc2)NC(=O)[C@H](CC(=O)O)NC(=O)CNC1=O [indium-111 labelled]; test system = female athymic nude mice, liver; conditions = intravenous, 3 µCi, 72 h, U-87 MG glioma xenograft; endpoint = tissue uptake; value = 0.55 ± 0.05 %ID/g
Structure (SMILES) = CC(C)C[C@H](NC(=O)[C@@H]1CCCN1C(=O)[C@H](CCCCN)NC(=O)[C@@H](N)CO)C(=O)N1CCC[C@H]1C(=O)N[C@@H](CCC(=O)O)C(=O)N[C@H](C(=O)N[C@H](C(=O)N[C@@H](CC(=O)O)C(=O)N[C@@H](CCC(=O)O)C(=O)N[C@@H](Cc1ccc(O)cc1)C(=O)N[C@@H](Cc1cn(CCOCCOCCOCCNC(=O)CCc2ccc(O)c(CN(CCN(CC(=O)O)Cc3cc(CCC(=O)NCCCC[C@H](NC(=O)N[C@@H](CCC(=O)O)C(=O)O)C(=O)O)ccc3O)CC(=O)O)c2)nn1)C(=O)O)[C@@H](C)O)C(C)C [gallium-68 labelled]; test system = NMRI nu/nu mice, LNCaP tumour, lung; conditions = 135.34 nmol/kg, low molar activity; endpoint = standardized uptake value; value = 0.09 g/g
Structure (SMILES) = N=C(N)NCCC[C@@H]1NC(=O)[C@H](CCCCNC(=O)CCOCCOCCOCCOCCNC(=O)CC[C@H](NC(=O)CCOCCOCCOCCOCCNC(=O)[C@H](CCCCNC(=O)c2ccc(NN)nc2)NC(=O)c2ccc(NN)nc2)C(=O)NCCOCCOCCOCCOCCC(=O)NCCCC[C@@H]2NC(=O)[C@@H](Cc3ccccc3)NC(=O)[C@H](CC(=O)O)NC(=O)CNC(=O)[C@H](CCCNC(=N)N)NC2=O)NC(=O)[C@@H](Cc2ccccc2)NC(=O)[C@H](CC(=O)O)NC(=O)CNC1=O [technetium-99m labelled]; assay = SPECT/CT; test system = female athymic nu/nu mice, glioma xenograft, tumour; conditions = intravenous, 60 min, tumour volume about 0.2 cm3; endpoint = tissue uptake; value = ~7.5 %ID/mL
Structure (SMILES) = N=C(N)NCCC[C@@H]1NC(=O)[C@H](CCCCNC(=O)CCOCCOCCOCCOCCNC(=O)CC[C@H](NC(=O)CCOCCOCCOCCOCCNC(=O)CC[C@H](NC(=O)CN2CCN(CC(=O)O)CCN(CC(=O)O)CCN(CC(=O)O)CC2)C(=O)NCCOCCOCCOCCOCCC(=O)N[C@@H](CCC(=O)NCCOCCOCCOCCOCCC(=O)NCCCC[C@@H]2NC(=O)[C@@H](Cc3ccccc3)NC(=O)[C@H](CC(=O)O)NC(=O)CNC(=O)[C@H](CCCNC(=N)N)NC2=O)C(=O)NCCOCCOCCOCCOCCC(=O)NCCCC[C@@H]2NC(=O)[C@@H](Cc3ccccc3)NC(=O)[C@H](CC(=O)O)NC(=O)CNC(=O)[C@H](CCCNC(=N)N)NC2=O)C(=O)NCCOCCOCCOCCOCCC(=O)NCCCC[C@@H]2NC(=O)[C@@H](Cc3ccccc3)NC(=O)[C@H](CC(=O)O)NC(=O)CNC(=O)[C@H](CCCNC(=N)N)NC2=O)NC(=O)[C@@H](Cc2ccccc2)NC(=O)[C@H](CC(=O)O)NC(=O)CNC1=O [indium-111 labelled]; test system = female athymic nude mice, intestine; conditions = intravenous, 3 µCi, 72 h, U-87 MG glioma xenograft; endpoint = tissue uptake; value = 5.74 ± 1.47 %ID/g
Structure (SMILES) = CCCC[C@H](NC(=O)CCCCCCCNC(=O)c1ccc(NN)nc1)C(=O)N[C@H]1CC(=O)NCCCC[C@@H](C(N)=O)NC(=O)[C@H](Cc2c[nH]c3ccccc23)NC(=O)[C@H](CCCNC(=N)N)NC(=O)[C@@H](Cc2ccccc2)NC(=O)[C@H](Cc2c[nH]cn2)NC1=O [technetium-99m labelled]; test system = C57 mouse, B16/F1 melanoma, muscle; conditions = intravenous, 4 h; endpoint = uptake; value = 0.04 ± 0.03 %ID/g
Structure (SMILES) = CC(C)C[C@H](NC(=O)[C@H](Cc1ccc(O)cc1)NC(=O)[C@@H](CCCNC(=N)N)NC(=O)[C@@H](CO)NC(=O)[C@H](Cc1ccccc1)NC(=O)[C@H](CC1CCCCC1)NC(=O)[C@H](CC(=O)O)NC(=O)CCC(C(=O)O)N1CCCN2CCN(CCCN(CC(=O)O)CC2)CC1)C(=O)N[C@@H](Cc1c[nH]c2ccccc12)C(=O)N[C@@H](CO)C(=O)O (stereo partly shown) [copper-64 labelled]; test system = female NMRI nude mice, tumor; conditions = 22 h p.i.; endpoint = tissue uptake; value = 2 ± 0.3 %ID/g

Some of these lines once more:
Structure (SMILES) = N=C(N)NCCC[C@@H]1NC(=O)[C@H](CCCCNC(=O)CCOCCOCCOCCOCCNC(=O)CC[C@H](NC(=O)CCOCCOCCOCCOCCNC(=O)[C@H](CCCCNC(=O)c2ccc(NN)nc2)NC(=O)c2ccc(NN)nc2)C(=O)NCCOCCOCCOCCOCCC(=O)NCCCC[C@@H]2NC(=O)[C@@H](Cc3ccccc3)NC(=O)[C@H](CC(=O)O)NC(=O)CNC(=O)[C@H](CCCNC(=N)N)NC2=O)NC(=O)[C@@H](Cc2ccccc2)NC(=O)[C@H](CC(=O)O)NC(=O)CNC1=O [technetium-99m labelled]; assay = SPECT/CT; test system = female athymic nu/nu mice, glioma xenograft, tumour; conditions = intravenous, 60 min, tumour volume about 0.2 cm3; endpoint = tissue uptake; value = ~7.5 %ID/mL
